Published values gathered from unrelated publications.
Each line is one published result; not all experiments were run side by side. Numbers after ± are the reported error.
CNR1: Cannabinoid receptor 1 (CNR1, Homo sapiens, UniProt P21554)
DRD2: D(2) dopamine receptor (DRD2, Homo sapiens, UniProt P14416)
DRD3: D(3) dopamine receptor (DRD3, Homo sapiens, UniProt P35462)
Oprd1: Delta-type opioid receptor (Oprd1, Rattus norvegicus, UniProt P33533)

SMILES | target | assay | test system | setting | scale | Emax [%]
O=C(c1ccc2c(c1)c1ccccc1n2CCN1CCCCC1)c1cccc2ccccc12 | CNR1 | cAMP inhibition, agonist, BRET | HEK293 expressing CNR1 | with: forskolin | reference: forskolin alone | 33.4
CCCCCCCCCCCCCCCCSCc1cc2cc(c1)CSC[C@H](N)C(=O)NCCCCCC(=O)N[C@@H](Cc1ccccc1)C(=O)N[C@@H](CC(C)C)C(=O)N[C@@H](Cc1ccccc1)C(=O)N[C@@H](CCCNC(=N)N)C(=O)N1[C@@H](C[C@@H]3CCCC[C@@H]31)C(=O)N[C@@H](CCCNC(=N)N)C(=O)N[C@@H](CC(N)=O)C(=O)NCCCCCC(=O)N[C@H](C(N)=O)CSC2 | NMUR2 (Homo sapiens, UniProt Q9GZQ4) | calcium signalling, agonist | HEK293 expressing receptor | 10 µM | reference: human NmU | 118 ± 4.8
CCCN(CCC)C1CCc2ccc(O)cc2C1 (racemic) | DRD2 | cell-based | – | – | – | 106
CN1CCCCC1Cn1c2ccccc2c2cc(C(=O)c3cccc4ccccc34)ccc21 (stereo not drawn) | CNR1 | GTPγS binding, agonist | – | cell membranes | – | 171
CC[C@H](C)[C@H](NC(=O)[C@H](Cc1ccccc1)NC(=O)[C@@H]1CCCN1C(=O)[C@H](CCCCN)NC(=O)[C@H](CCCCN)NC(=O)[C@H](Cc1ccccc1)NC(=O)[C@H](Cc1ccccc1)NC(=O)[C@@H](C)NC(=O)[C@@H](N)Cc1ccc(O)cc1)C(=O)N[C@@H](CC(C)C)C(=O)O | DRD2 | GTPγS binding, agonist, radiometric | – | cell membranes | – | 117
CC(N)CCc1ccccc1Cl (racemic) | DRD3 | agonist | – | – | reference: PD128907 | 57.3 ± 2.5
CCCC[C@H](NC(=O)[C@H](Cc1ccccc1)NC(=O)CNC(=O)[C@@H](C)NC(=O)[C@@H](N)Cc1ccc(O)cc1)C(=O)N1CCC[C@H]1C(=O)N[C@@H](CC(C)C)C(=O)N[C@@H](CO[C@@H]1O[C@H](CO)[C@@H](O)[C@H](O)[C@H]1O)C(=O)N[C@@H](Cc1c[nH]c2ccccc12)C(=O)NCc1cc(C(F)(F)F)cc(C(F)(F)F)c1 | OPRM1 (Cavia porcellus, UniProt P97266) | smooth muscle contraction inhibition, agonist | guinea pig ileum | – | reference: PL-017 | 93.7 ± 4.1
O=C1C[C@H](c2nc(-c3ccc(F)c4cn[nH]c34)no2)CCCN1c1ccc(F)cc1 (racemic) | CNR2 (Homo sapiens, UniProt P34972) | cAMP, agonist, luciferase | CHO | – | – | 97.8
CC[C@H](C)[C@H](NC(=O)[C@@H]1CCCN1C(=O)[C@H](Cc1c[nH]cn1)NC(=O)[C@@H](NC(=O)[C@H](Cc1ccc(O)cc1)NC(=O)[C@@H](NC(=O)[C@H](CCCNC(=N)N)NC(=O)CNC)C(C)C)[C@@H](C)CC)C(=O)O | AGTR1 (Homo sapiens, UniProt P30556) | β-arrestin 2 recruitment, agonist | U2OS cells | 90 min, 37 °C | – | 31 ± 2
CC(=O)OCCCCCn1c2ccccc2c2cc(C(=O)c3cccc4ccccc34)ccc21 | CNR1 | GTPγS binding, agonist | – | cell membranes | – | 69.7
Cc1cc(O)cc(C)c1C[C@H](N)C(=O)N[C@@H](C(=O)NCC(=O)N[C@@H](Cc1ccc2ccccc2c1)C(=O)N[C@@H](CC(C)C)C(=O)N[C@@H](CO)C(N)=O)[C@H](C)O | Oprd1 | GTPγS binding, agonist, radiometric | – | cell membranes | – | 164
CCCCCCn1c2ccccc2c2cc(C(=O)c3cccc4ccccc34)ccc21 | CNR1 | cAMP inhibition, agonist, BRET | HEK293 expressing CNR1 | with: forskolin | reference: forskolin alone | 33.4
CNC(C)CCc1ccccc1Cl (racemic) | DRD3 | agonist | – | – | reference: PD128907 | 66.1 ± 6.5
CC(C)C[C@H](NC(=O)[C@H](Cc1cccc2ccccc12)NC(=O)CNC(=O)[C@H](NC(=O)[C@@H](N)Cc1ccc(O)cc1)[C@H](C)O)C(=O)N[C@@H](CO)C(N)=O | Oprd1 | GTPγS binding, agonist, radiometric | – | cell membranes | – | 144
O=C(c1ccc2c(c1)c1ccccc1n2CC1CCOCC1)c1cccc2ccccc12 | CNR1 | cAMP inhibition, agonist, BRET | HEK293 expressing CNR1 | with: forskolin | reference: forskolin alone | 57.8

Excerpt of the above:
SMILES | target | assay | test system | setting | scale | Emax [%]
CCCCCCCCCCCCCCCCSCc1cc2cc(c1)CSC[C@H](N)C(=O)NCCCCCC(=O)N[C@@H](Cc1ccccc1)C(=O)N[C@@H](CC(C)C)C(=O)N[C@@H](Cc1ccccc1)C(=O)N[C@@H](CCCNC(=N)N)C(=O)N1[C@@H](C[C@@H]3CCCC[C@@H]31)C(=O)N[C@@H](CCCNC(=N)N)C(=O)N[C@@H](CC(N)=O)C(=O)NCCCCCC(=O)N[C@H](C(N)=O)CSC2 | NMUR2 (Homo sapiens, UniProt Q9GZQ4) | calcium signalling, agonist | HEK293 expressing receptor | 10 µM | reference: human NmU | 118 ± 4.8
CN1CCCCC1Cn1c2ccccc2c2cc(C(=O)c3cccc4ccccc34)ccc21 (stereo not drawn) | CNR1 | GTPγS binding, agonist | – | cell membranes | – | 171
